Results collected from several papers.
Parts stem from different laboratories: compare values within a part only. Changes are numbered by the printed parent chain.

Sample 1
Target: ABI1, truncated, D143A, DHFR fusion (Arabidopsis thaliana)
Method: DHFR PCA, deep sequencing
Matrix: yeast
Setting: methotrexate growth selection, single substitutions
Together with: (+)-ABA 1.4 µM
Relative to: wild-type fitted maximum
Reading: higher = stronger binding
Measurement: relative binding score
Parent: PYL1, truncated, DHFR fusion (Arabidopsis thaliana); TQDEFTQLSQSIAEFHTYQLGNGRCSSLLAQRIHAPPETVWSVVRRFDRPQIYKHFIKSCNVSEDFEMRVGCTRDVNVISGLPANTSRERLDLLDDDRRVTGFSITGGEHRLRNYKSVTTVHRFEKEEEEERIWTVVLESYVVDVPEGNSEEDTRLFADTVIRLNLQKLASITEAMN
Q7E: 67.2%
S140Q: 17.6%
P83L: -2.4%

Sample 2
Target: RNA binding protein fox-1 homolog 2, RRM domain, GST-SBP tag (RBFOX2, Homo sapiens, UniProt O43251-10, residues 100-194)
Method: RNA Bind-n-Seq
Molecule type: RNA
Matrix: in vitro
Concentration: 365 nM
Setting: natural RNA segment, single round, ends assumed
Relative to: no-protein control
Reading: higher = stronger binding
Measurement: RBNS enrichment (R)
Construct (chain): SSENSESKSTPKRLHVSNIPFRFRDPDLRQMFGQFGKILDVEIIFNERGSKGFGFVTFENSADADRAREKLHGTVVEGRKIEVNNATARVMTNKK
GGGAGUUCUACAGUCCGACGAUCGCAUUACUAGAACCAUUGUCAAAGCAGUGGCAAGGGACGGAGAGGUCCCAACAGGAGUCAGGAAGAGGUUUGAUUAUAACCAAGAAAACUCACUAUGCUAGGAAUAGACUUGGAAUUCUCGGGUGCCAA: 0.74
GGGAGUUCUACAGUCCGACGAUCCUCUGCCUUCUCCACCUCCGAGGCUGUGCAUUCAUCCAAUUAGUGUCAUGAAUGUUUCCCCUUUAUUUUUCCAAUAAAAAAAAGCAGUGGGAUGAAAAUUGCUUUGAUAUUGGAAUUCUCGGGUGCCAA: 1.22
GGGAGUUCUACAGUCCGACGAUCUGCGGCCAGGCUGAGCUCUGCCCCCAACUUUGUUUUCUCUCAUGUUCUCAAUACACUCUGCCUCAAAUCCGUCUUGCUUCUUUCUUUCUUCCGUGCUGCUAGGGGUCAGGUGGAAUUCUCGGGUGCCAA: 1.24
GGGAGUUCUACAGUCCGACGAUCCCUCCAUUGUCCCACGCACUCCUUGGCAGCAGAAUGCUGGCAGCUUGUGACCCUCAUGUUUCCUGUAAGUCUGUUUCAUGGUAGGGUUCAUACCUGCCUCAGCCUGACAGUGGAAUUCUCGGGUGCCAA: 0.274
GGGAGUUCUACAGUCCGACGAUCGGACCAUGACUUAGGGAGGUGGGACCCACCCACCCCCAUCCAGGAACCGUGACGUCCAAGGAACCAAACCCAGACGCAGAACAAUAAAAUAAAUUCCGUACUCCCCACCCUGGAAUUCUCGGGUGCCAA: 0.395
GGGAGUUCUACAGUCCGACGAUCUUUGAAAGAUUUUUGUAAAUUCUUUUAACACUGAUGUUUCAGCCUCGUCUUUGUUUCAGUUAAGCUCAAUGGCGAACAUGGGAACCACCUUUCGCCUUCCCUGGGGGAGAUGGAAUUCUCGGGUGCCAA: 0.19

Sample 3
Target: Histone acetyltransferase KAT6A, winged helix 2, GST fusion (KAT6A, Homo sapiens, UniProt Q92794, residues 85-181)
Method: protein binding microarray
Molecule type: double-stranded DNA, one strand shown
Matrix: in vitro
Concentration: not given
Setting: 8-mer, flanks averaged, mean of 2 arrays, mostly near background
Relative to: not given
Reading: higher = stronger binding
Measurement: E-score
Target sequence (chain): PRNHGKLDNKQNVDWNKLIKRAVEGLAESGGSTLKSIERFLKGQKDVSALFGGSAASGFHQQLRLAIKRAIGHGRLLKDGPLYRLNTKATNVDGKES
AGACTAGG: -0.213
AAGAATGT: -0.0993
AAAGCTTA: 0.046
ATGGATTC: 0.00912
ACGCCGTG: 0.116

Further values, each from its own experiment
PhoQ, residues 284 288 289 292 302 303 TLSLKA  fold induction (PhoP, residues 12 14 15 18 19 IQSYL (Escherichia coli, UniProt P23836); Sort-seq, item: YFP reporter; E. coli; PhoQ-PhoP variant library, together with: 10 µM Mg2+; relative to: high Mg2+ state, higher = stronger signaling): 2.25
